Measured values gathered from unrelated publications.
Each line is one published result; not all experiments were run side by side. ± marks the error that the study gave.
Organism: Toxoplasma gondii

SMILES	assay	system	setting	measurement	value
CC(C)(C)c1nn(-c2cc(OCc3cn(Cc4ccc(C(F)(F)F)cc4)nn3)c(Cl)cc2Cl)c(=O)o1	intracellular growth	HFF, Δppo PPO-complemented	96 h	IC50	0.7 ± 0.1 µM
OCC1CC(n2cnc3c(SCc4ccc(Cl)c(Cl)c4)ncnc32)C(O)C1O (centres unmarked)	parasite growth, radiolabelled uracil incorporation	RH wild type, tissue culture		IC50	14.4 ± 0.6 µM
COc1ccccc1Oc1cccc(OCCSC#N)c1		tachyzoites		IC50	2.79 ± 0.42 µM
O=[N+]([O-])c1cccc(CSc2ncnc3c2ncn3C2CC(CO)C(O)C2O)c1 (centres unmarked)	parasite growth, radiolabelled uracil incorporation	RH wild type, tissue culture		IC50	19.7 ± 0.2 µM
CC(C)(C)C1=CC(=NNC(=O)c2ccc([N+](=O)[O-])cc2)C=C(C(C)(C)C)C1=O		ME49, Swiss-Webster mice	intraperitoneal, 5.0 mg/kg/day, 10 days dosing, 40 days observed	survival	0%
CC(C)(C)c1nn(-c2cc(OCc3cn(Cc4ccc(Cl)cc4)nn3)c(Cl)cc2Cl)c(=O)o1	intracellular growth	HFF, Δppo PPO-complemented	96 h	IC50	1.1 ± 0.4 µM
N#CSCCOc1cccc(Oc2ccc(Cl)cc2)c1	growth	tachyzoites		IC50	3.9 µM
CCC(=O)CCCCC[C@@H]1NC(=O)[C@H]2CCCCN2C(=O)[C@H]([C@@H](C)CC)NC(=O)[C@H](Cc2cn(OC)c3ccccc23)NC1=O	intracellular growth, [3H]uracil incorporation	HFF, RH wild type	72 h	EC50	0.015 ± 0.002 µM
N#CSCCOc1ccc(Br)cc1Br		tachyzoites		IC50	> 10 µM
CC(C)(C)c1nn(-c2cc(OCc3cn(Cc4ccc(Br)cc4)nn3)c(Cl)cc2Cl)c(=O)o1	intracellular growth	HFF, Δppo PPO-complemented	96 h	IC50	1.7 ± 0.2 µM
OCC1CC(n2cnc3c(SCc4ccc(Cl)cc4Cl)ncnc32)C(O)C1O (centres unmarked)	parasite growth, radiolabelled uracil incorporation	RH wild type, tissue culture		IC50	18.6 ± 0.9 µM
N#CSCCOc1cccc(Oc2ccccn2)c1		tachyzoites		IC50	> 10 µM
OCC1CC(n2cnc3c(SCc4ccc(Cl)cc4)ncnc32)C(O)C1O (centres unmarked)	parasite growth, radiolabelled uracil incorporation	RH wild type, tissue culture		IC50	14.5 ± 1.3 µM
CCCCCCCc1cc(O)c2ccccc2[n+]1[O-]	parasite growth, qPCR	Vero, tachyzoites	24 h	EC50	0.995 µM

Some of these lines once more:
SMILES	assay	system	setting	measurement	value
CCCCCCCc1cc(O)c2ccccc2[n+]1[O-]	parasite growth, qPCR	Vero, tachyzoites	24 h	EC50	0.995 µM
